Measurements collected from several papers.
Numbered parts are unrelated; each lists some results of a single study. Values joined by “and” are separate records of one study, mostly repeats; a detail may differ.
Chain of UniProt P07949 (whole entry, looked up): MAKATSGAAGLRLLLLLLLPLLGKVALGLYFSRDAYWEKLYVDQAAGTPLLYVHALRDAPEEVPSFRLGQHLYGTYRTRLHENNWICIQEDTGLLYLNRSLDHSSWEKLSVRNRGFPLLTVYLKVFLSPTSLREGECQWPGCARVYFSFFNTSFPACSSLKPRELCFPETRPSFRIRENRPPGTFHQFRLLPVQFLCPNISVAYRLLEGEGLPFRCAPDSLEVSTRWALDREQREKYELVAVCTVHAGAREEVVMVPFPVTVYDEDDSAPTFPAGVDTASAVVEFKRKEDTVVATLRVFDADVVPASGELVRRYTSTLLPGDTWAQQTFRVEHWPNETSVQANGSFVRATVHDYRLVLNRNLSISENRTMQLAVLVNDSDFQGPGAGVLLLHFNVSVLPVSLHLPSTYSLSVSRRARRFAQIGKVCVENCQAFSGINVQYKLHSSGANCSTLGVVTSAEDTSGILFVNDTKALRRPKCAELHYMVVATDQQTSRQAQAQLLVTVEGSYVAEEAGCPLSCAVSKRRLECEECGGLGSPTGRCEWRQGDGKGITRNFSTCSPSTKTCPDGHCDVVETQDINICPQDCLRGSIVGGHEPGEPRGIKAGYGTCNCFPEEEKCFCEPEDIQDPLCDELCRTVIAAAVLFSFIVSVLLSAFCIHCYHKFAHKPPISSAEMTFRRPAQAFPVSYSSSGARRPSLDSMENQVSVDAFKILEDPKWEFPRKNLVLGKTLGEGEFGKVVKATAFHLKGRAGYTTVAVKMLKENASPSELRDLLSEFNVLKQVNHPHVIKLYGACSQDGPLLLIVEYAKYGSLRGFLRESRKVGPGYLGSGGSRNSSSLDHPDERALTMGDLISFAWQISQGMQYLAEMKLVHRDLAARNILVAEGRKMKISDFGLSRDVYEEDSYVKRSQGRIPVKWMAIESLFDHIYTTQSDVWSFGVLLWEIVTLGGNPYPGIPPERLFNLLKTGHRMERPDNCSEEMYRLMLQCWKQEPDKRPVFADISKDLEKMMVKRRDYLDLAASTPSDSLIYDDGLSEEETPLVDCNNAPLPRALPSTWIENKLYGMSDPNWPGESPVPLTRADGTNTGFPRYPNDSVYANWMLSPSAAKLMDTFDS
Chain of UniProt Q8NFD2 (whole entry, looked up): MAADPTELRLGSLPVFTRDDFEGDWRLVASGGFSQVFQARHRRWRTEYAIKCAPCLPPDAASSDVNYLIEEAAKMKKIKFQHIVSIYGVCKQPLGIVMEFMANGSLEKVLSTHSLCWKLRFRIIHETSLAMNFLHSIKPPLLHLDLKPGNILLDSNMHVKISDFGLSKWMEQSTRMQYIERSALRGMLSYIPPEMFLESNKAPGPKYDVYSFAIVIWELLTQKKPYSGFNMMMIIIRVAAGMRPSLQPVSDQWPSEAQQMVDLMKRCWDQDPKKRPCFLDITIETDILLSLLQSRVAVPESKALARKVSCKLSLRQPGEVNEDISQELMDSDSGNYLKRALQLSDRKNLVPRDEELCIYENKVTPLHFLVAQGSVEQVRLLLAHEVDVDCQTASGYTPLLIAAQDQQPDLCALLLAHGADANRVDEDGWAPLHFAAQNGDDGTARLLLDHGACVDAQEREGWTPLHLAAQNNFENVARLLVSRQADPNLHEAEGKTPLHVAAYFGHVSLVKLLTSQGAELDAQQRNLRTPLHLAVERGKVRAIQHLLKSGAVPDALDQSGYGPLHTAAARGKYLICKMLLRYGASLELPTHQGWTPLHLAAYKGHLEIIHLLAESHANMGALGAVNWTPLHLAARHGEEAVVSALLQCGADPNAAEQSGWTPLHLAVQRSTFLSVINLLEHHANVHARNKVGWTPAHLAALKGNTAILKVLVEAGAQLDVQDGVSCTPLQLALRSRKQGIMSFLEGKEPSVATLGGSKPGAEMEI
Chain of UniProt P00519 (whole entry, unmodified, looked up): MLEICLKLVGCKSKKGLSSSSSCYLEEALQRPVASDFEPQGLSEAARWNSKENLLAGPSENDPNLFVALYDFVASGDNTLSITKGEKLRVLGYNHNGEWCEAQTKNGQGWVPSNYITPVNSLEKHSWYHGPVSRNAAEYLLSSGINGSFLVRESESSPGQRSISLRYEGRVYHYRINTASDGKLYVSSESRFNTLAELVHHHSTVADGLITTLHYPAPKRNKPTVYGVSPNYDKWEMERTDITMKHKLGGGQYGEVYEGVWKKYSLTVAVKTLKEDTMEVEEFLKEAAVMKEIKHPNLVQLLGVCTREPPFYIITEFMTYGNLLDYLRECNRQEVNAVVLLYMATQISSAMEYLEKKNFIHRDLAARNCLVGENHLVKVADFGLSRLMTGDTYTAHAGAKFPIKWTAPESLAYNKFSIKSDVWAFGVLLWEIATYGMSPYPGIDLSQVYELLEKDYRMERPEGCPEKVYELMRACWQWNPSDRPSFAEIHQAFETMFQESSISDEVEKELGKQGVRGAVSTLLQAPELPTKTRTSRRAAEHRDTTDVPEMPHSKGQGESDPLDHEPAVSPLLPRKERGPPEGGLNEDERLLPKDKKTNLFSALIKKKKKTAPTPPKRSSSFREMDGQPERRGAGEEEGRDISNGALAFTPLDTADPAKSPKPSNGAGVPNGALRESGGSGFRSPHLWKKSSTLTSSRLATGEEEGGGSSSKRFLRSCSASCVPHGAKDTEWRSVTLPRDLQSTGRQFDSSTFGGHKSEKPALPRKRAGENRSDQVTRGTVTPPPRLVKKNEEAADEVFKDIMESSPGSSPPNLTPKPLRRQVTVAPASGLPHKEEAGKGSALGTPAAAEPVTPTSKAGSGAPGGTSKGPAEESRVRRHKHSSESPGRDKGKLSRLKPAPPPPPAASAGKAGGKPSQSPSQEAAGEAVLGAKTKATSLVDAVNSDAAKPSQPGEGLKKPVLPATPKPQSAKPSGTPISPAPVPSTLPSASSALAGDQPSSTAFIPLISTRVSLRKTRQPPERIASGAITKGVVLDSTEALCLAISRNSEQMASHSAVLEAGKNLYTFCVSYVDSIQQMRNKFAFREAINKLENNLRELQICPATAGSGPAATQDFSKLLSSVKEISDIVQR
Chain of UniProt Q96L34 (whole entry, looked up): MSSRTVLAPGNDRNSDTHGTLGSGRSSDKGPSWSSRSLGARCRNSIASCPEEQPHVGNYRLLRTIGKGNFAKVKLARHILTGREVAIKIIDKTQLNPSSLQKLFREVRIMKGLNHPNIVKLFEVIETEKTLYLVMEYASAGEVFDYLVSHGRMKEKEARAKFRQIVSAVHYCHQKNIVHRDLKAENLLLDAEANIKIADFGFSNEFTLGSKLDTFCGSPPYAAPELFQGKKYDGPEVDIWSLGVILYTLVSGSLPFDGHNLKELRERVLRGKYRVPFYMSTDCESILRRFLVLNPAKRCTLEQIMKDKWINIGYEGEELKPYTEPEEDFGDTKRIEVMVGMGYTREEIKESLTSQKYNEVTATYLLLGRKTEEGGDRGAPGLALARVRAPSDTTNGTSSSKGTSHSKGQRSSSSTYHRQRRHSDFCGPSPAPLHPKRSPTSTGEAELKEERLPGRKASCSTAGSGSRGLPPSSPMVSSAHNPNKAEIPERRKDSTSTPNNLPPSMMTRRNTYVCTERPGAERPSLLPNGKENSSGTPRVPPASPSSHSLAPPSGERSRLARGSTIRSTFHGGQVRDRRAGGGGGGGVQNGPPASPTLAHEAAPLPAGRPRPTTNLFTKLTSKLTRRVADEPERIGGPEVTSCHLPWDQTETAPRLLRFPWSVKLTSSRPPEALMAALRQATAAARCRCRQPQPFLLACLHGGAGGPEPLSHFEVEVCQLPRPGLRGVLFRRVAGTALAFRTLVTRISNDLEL
Chain of UniProt P09769 (whole entry, looked up): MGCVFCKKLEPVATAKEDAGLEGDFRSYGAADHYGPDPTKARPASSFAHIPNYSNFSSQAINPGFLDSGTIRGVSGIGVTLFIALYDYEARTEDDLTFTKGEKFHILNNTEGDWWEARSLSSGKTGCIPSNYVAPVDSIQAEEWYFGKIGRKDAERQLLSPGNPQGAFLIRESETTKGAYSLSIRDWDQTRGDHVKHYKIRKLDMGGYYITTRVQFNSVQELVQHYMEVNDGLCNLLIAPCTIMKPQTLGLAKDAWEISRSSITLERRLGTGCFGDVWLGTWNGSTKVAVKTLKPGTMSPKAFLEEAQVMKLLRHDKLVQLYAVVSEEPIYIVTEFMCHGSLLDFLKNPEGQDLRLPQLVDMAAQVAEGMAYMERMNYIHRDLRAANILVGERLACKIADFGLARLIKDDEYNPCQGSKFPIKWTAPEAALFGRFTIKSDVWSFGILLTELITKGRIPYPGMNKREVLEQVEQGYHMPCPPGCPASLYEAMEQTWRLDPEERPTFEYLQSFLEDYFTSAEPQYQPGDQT
Chain of UniProt P11802 (whole entry, looked up): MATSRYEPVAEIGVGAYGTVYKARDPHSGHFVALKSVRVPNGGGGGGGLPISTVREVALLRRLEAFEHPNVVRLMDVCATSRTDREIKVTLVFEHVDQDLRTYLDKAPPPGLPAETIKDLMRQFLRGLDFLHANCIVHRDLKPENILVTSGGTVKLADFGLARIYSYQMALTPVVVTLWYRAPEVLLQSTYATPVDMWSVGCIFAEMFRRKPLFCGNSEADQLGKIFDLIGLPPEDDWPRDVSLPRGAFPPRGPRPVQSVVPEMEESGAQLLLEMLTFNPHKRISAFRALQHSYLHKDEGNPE

Series 1
SMILES: COc1cc(C(=O)N2CCC(N3CCN(C)CC3)CC2)ccc1Nc1ncc2c(n1)N(C)c1ccccc1C(=O)N2C
Action: inhibitor
Tested at: 5 µM
Quantity: log2 fold change
NPR2 (Homo sapiens, UniProt P20594); cell-based kinome screen; human cells; baseline: untreated control: 0.03 log2
Tyrosine-protein kinase Fgr, with CDC37 (FGR, Homo sapiens, UniProt P09769); cell-based kinome screen; human cells; baseline: vehicle: -0.189
CLK3 (Homo sapiens, UniProt P49761); human cells; baseline: vehicle: -0.565
DYRK2 (Homo sapiens, UniProt Q92630); human cells; baseline: vehicle: 0.042
EGFR (Homo sapiens, UniProt P00533, L858R); human cells; baseline: vehicle: 0.515
RET (Homo sapiens, UniProt P07949); human cells; cell-based kinome screen; baseline: vehicle: -0.176 and -0.151
BRAF (Homo sapiens, UniProt P15056, K601E); cell-based kinome profiling; human cells; baseline: vehicle control: -0.005
AKT1 (Homo sapiens, UniProt P31749); cell-based kinome profiling; human cells; baseline: vehicle control: -0.075

Series 2
Target: Beta-1 adrenergic receptor (ADRB1, Homo sapiens, UniProt P08588)
Chain of UniProt P08588 (whole entry, looked up): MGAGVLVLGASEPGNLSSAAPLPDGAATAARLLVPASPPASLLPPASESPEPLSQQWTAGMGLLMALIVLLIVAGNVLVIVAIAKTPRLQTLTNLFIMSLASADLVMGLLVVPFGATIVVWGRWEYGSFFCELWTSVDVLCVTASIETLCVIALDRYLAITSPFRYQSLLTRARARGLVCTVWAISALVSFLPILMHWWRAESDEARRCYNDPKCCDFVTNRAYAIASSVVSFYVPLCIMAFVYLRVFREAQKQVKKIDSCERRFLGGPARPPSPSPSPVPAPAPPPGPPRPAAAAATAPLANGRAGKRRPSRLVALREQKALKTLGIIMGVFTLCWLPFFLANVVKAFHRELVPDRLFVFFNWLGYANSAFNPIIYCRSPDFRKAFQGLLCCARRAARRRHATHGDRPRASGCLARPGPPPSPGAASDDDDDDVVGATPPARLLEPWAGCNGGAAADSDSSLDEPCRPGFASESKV
Action: antagonist
Quantity: IC50
O=C(Nc1nnc(-c2ccco2)o1)c1cc(-c2ccccc2)nc2ccccc12: 22.4 µM
O=C(CCc1ccccc1)Nc1ccc([C@@H](O)[C@H]2COCC(=O)N2Cc2ccncc2)cc1: ≥ 100 µM
Cc1nc2c(c(N[C@@H]3COCC[C@H]3OCc3ccccn3)n1)CCC2: ≥ 100 µM
C/C=C(/C)c1c(Cl)c(O)c(C)c2c1Oc1c(Cl)c(O)c(Cl)c(C)c1C(=O)O2: ≥ 100 µM
OC(COc1ccccc1)CN1CCN(Cc2cnc3ccccc3c2)CC1 (stereo not shown): ≥ 100 µM
COc1ccccc1N1CCN(C(=O)Cc2cccs2)CC1: ≥ 100 µM
Cc1cc(=O)oc2cc(O)c(O)cc12: ≥ 100 µM
CCC(c1ccccc1)N1CCN(CC(C)O)CC1 (stereo not shown): ≥ 100 µM
N#CSCC(=O)c1ccc(O)c(O)c1: ≥ 100 µM

Series 3
Compound: CCCCN(CCCC)C(=O)CN1C[C@H](c2cc(OC)c3c(c2)OCO3)[C@@H](C(=O)O)[C@@H]1CC(C)(C)CCC
Method: competition with immobilised ligand
Tested at: 1 µM
Quantity: remaining binding
FLT3 (Homo sapiens, UniProt P36888, R834Q); cell-free assay: 64.2%
ANKK1 (Homo sapiens, UniProt Q8NFD2); cell-free assay: 55.1%
TSSK1B (Homo sapiens, UniProt Q9BXA7); cell-free assay: 100%
PRKX (Homo sapiens, UniProt P51817); cell-free assay: 100%
PDGFRA (Homo sapiens, UniProt P16234); cell-free assay: 56.1%
CDK4 (Homo sapiens, UniProt P11802); cell-free assay: 42.7%
MAP3K6 (Homo sapiens, UniProt O95382); cell-free assay: 81.7%
CAMK1D (Homo sapiens, UniProt Q8IU85); cell-free assay: 100%
FLT3 (Homo sapiens, UniProt P36888, D835H); cell-free assay: 100%
GSK3B (Homo sapiens, UniProt P49841); cell-free assay: 100%
LIM domain kinase 1 (LIMK1, Homo sapiens, UniProt P53667); cell-free assay: 100%
MARK4 (Homo sapiens, UniProt Q96L34); cell-free assay: 98.3%
RIOK3 (Homo sapiens, UniProt O14730); cell-free assay: 74.9%
ACVR2A (Homo sapiens, UniProt P27037); cell-free assay: 97.4%
Ribosomal protein S6 kinase alpha-2, C-terminal kinase domain (RPS6KA2, Homo sapiens, UniProt Q15349); cell-free assay: 100%
Tyrosine-protein kinase ABL1, phosphorylated (ABL1, Homo sapiens, UniProt P00519, E255K); binding: 83.7%
FGFR3 (Homo sapiens, UniProt P22607, G697C); cell-free assay: 80.2%

Series 4
Cell line: mouse MPNST tumor cells
Method: high-content nuclear imaging
Measured: cell number
Tested at: 10 µM
Time: 12 h
Notes: mean of 2 replicates
Baseline: plate mean
Reading: higher = more cells
Quantity: nuclei count
Cc1cc(C)cc(-c2cnc3cc(Cl)c(-c4cccc(O)c4)cc3c2OCCCN)c1: -0.737 z-score
O=C(O)c1cc([N+](=O)[O-])ccc1NCCCc1ccccc1: 0.45 z-score
Cc1cc(N2CCCCC2)nc2ccccc12: 0.875 z-score
N=C(NC(=O)c1nc(Cl)c(N)nc1N)Nc1ccccc1: 2.72 z-score
COc1ccc2c(c1)c(CC(=O)O)c(C)n2C(=O)c1ccc(Cl)cc1: 2.82 z-score
C[C@]12CC[C@H]3[C@@H](CCC4=CC(=O)CC[C@@]43C)[C@@H]1CC[C@@H]2C(=O)CO: 1.13 z-score

A few entries again (series 2):
Cc1nc2c(c(N[C@@H]3COCC[C@H]3OCc3ccccn3)n1)CCC2: ≥ 100 µM
C/C=C(/C)c1c(Cl)c(O)c(C)c2c1Oc1c(Cl)c(O)c(Cl)c(C)c1C(=O)O2: ≥ 100 µM
OC(COc1ccccc1)CN1CCN(Cc2cnc3ccccc3c2)CC1 (stereo not shown): ≥ 100 µM
